Results of several laboratories.
Compare with care: the assays were run in different laboratories.

| Structure (SMILES) | tested on | assay | test system | setting | quantity | value |
| --- | --- | --- | --- | --- | --- | --- |
| CC(C)=CCc1cc([C@@H]2CC(=O)c3ccc(O)c(CC=C(C)C)c3O2)c(O)c(CC=C(C)C)c1O | Shigella flexneri |  | DMST 4423 |  | MIC | inactive |
| Oc1c(Br)ccc2cccnc12 | Morganella morganii | microbial growth, agar dilution |  |  | MIC | 35.7 µM |
| CC[C@@H](C)[C@@H](NC(=O)[C@@H](C)NC(=O)[C@@H](CCCCN)NC(=O)[C@@H](CC(C)C)NC(=O)[C@@H](CC(C)C)NC(=O)[C@H](NC(=O)[C@@H](CCCCN)NC(=O)[C@@H](CC(C)C)NC(=O)[C@@H](CCCCN)NC(=O)[C@@H](CCCCN)NC(=O)[C@@H](CCCCN)NC(=O)[C@@H](CCCCN)NC(=O)[C@@H](C)NC(=O)[C@@H](CCCCN)NC(=O)[C@@H](CO)NC(=O)[C@@H](Cc1ccccc1)NC(=O)[C@H](NC(=O)[C@@H](CCCCN)NC(=O)[C@@H](CC(C)C)NC(=O)[C@@H](Cc1ccccc1)NC(=O)[C@@H](CO)NC(=O)[C@@H](CCCCN)NC(=O)[C@@H](Cc1c[nH]c2ccccc12)NC(=O)[C@@H](CCCCN)NC(C)=O)[C@H](C)O)[C@H](C)O)C(=O)N[C@H](CO)C(=O)N[C@H](CCCCN)C(N)=O | Acinetobacter baumannii |  | 649, Mueller-Hinton broth | 24 h, 37 °C | MIC | 0.6 µM |
| C[C@@H](c1ccn(Cc2cc(F)ccc2F)n1)[C@](O)(Cn1cnnn1)c1ccc(F)cc1F | Aspergillus fumigatus | growth, broth microdilution | 7544 | 48 h, 35 °C, ≥50% inhibition | MIC | > 64 mg/L |
| COc1cc(CNC(=O)C[C@H](C)CCC=C(C)C)ccc1OCc1cn(-c2ccccc2F)nn1 | SF-295 CNS cancer cells | SRB |  | 10 µM, 48 h | growth percent | 45.2% |
| CC(C)c1ccc(Cn2ccc([C@H](C)[C@](O)(Cn3cnnn3)c3ccc(F)cc3F)n2)cc1 | Aspergillus fumigatus | growth, broth microdilution | 7544 | 48 h, 35 °C, ≥50% inhibition | MIC | > 64 mg/L |
| CC[C@@H](C)[C@@H](NC(=O)[C@@H](C)NC(=O)[C@@H](CCCCN)NC(=O)[C@@H](CC(C)C)NC(=O)[C@@H](CC(C)C)NC(=O)[C@H](NC(=O)[C@@H](CCCCN)NC(=O)[C@@H](CC(C)C)NC(=O)[C@@H](C)NC(=O)[C@@H](CCCCN)NC(=O)[C@@H](CCCCN)NC(=O)[C@@H](CCCCN)NC(=O)[C@@H](C)NC(=O)[C@@H](CCCCN)NC(=O)[C@@H](CO)NC(=O)[C@@H](Cc1ccccc1)NC(=O)[C@H](NC(=O)[C@@H](CCCCN)NC(=O)[C@@H](CC(C)C)NC(=O)[C@@H](Cc1ccccc1)NC(=O)[C@@H](CO)NC(=O)[C@@H](CCCCN)NC(=O)[C@@H](Cc1c[nH]c2ccccc12)NC(=O)[C@@H](CCCCN)NC(C)=O)[C@H](C)O)[C@H](C)O)C(=O)N[C@H](CO)C(=O)N[C@H](CCCCN)C(N)=O | Acinetobacter baumannii |  | 821, Mueller-Hinton broth | 24 h, 37 °C | MIC | 0.7 µM |
| COc1c(NC(=O)c2ccc(NC(=O)c3ccc(NC(=O)[C@H](CC#N)NC(=O)c4ccc(NC(=O)/C(C)=C/c5ccc(O)cc5)cc4)cc3)c(OC)c2O)ccc(C(=O)O)c1O | Serratia marcescens | microbial growth | DSM30121 |  | MIC | > 64 mg/L |
| Oc1c(Br)cc(Br)c2nc3cc(Cl)ccc3nc12 | Staphylococcus epidermidis | microbial growth, broth dilution | 12228 |  | MIC | 0.1 µM |
| CC(C)=CCc1cc([C@@H]2CC(=O)c3c(O)cc(O)c(CC=C(C)C)c3O2)cc(CC=C(C)C)c1O | Shigella flexneri |  | DMST 4423 |  | MIC | 128 mg/L |
| C[C@@H](c1ccn(Cc2ccc(F)c(C(F)(F)F)c2)n1)[C@](O)(Cn1cnnn1)c1ccc(F)cc1F | Aspergillus fumigatus | growth, broth microdilution | 7544 | 48 h, 35 °C, ≥50% inhibition | MIC | > 64 mg/L |
| CC[C@@H](C)[C@@H](NC(=O)[C@@H](C)NC(=O)[C@@H](CCCCN)NC(=O)[C@@H](CC(C)C)NC(=O)[C@@H](C)NC(=O)[C@H](NC(=O)[C@@H](Cc1c[nH]cn1)NC(=O)[C@@H](CC(C)C)NC(=O)[C@H](NC(=O)[C@H](NC(=O)[C@@H](CCCCN)NC(=O)[C@H](NC(=O)[C@@H](C)NC(=O)[C@@H](CO)NC(=O)[C@@H](CCCCN)NC(=O)[C@@H](Cc1ccccc1)NC(=O)[C@H](NC(=O)[C@@H](CCCCN)NC(=O)[C@@H](CC(C)C)NC(=O)[C@@H](Cc1ccccc1)NC(=O)[C@@H](CO)NC(=O)[C@@H](CCCCN)NC(=O)[C@@H](Cc1c[nH]c2ccccc12)NC(=O)[C@@H](CCCCN)NC(C)=O)[C@H](C)O)C(C)C)[C@H](C)O)C(C)C)[C@H](C)O)C(=O)N[C@H](CO)C(=O)N[C@H](CO)C(N)=O | Acinetobacter baumannii |  | 689, Mueller-Hinton broth | 24 h, 37 °C | MIC | 0.7 µM |
| N#Cc1ccc2cccc(O)c2n1 | Morganella morganii | microbial growth, agar dilution |  |  | MIC | > 1500 µM |
| CC(C)=CCc1cc(-c2coc3cc(O)c(CC=C(C)C)c(O)c3c2=O)ccc1O | Shigella flexneri |  | DMST 4423 |  | MIC | inactive |
| Oc1c(Cl)cc(Cl)c2cccnc12 | Serratia marcescens | microbial growth, agar dilution | ATCC8100 |  | MIC | 37.4 µM |
| C[C@@H](c1ccn(Cc2cccc(C(F)(F)F)c2)n1)[C@](O)(Cn1cnnn1)c1ccc(F)cc1F | Aspergillus fumigatus | growth, broth microdilution | 7544 | 48 h, 35 °C, ≥50% inhibition | MIC | > 64 mg/L |
| O=c1c2ccccc2sn1-c1cc(Br)cc(Br)c1 | Aspergillus terreus | growth, broth dilution | ATCC MYA-3633 | MIC-0 | MIC | 12.5 mg/L |
| CCCCCCCCCC1CC2CCCC3CC(CCCCCCCCC)NC(=N1)N23 (centres unmarked) | Aspergillus fumigatus | fungal growth | ATCC 204305 |  | MIC | 23.2 µM |

| Structure (SMILES) | tested on | assay | test system | setting | quantity | value |
| --- | --- | --- | --- | --- | --- | --- |
| Oc1c(Br)cc(Br)c2nc3cc(Cc4ccccc4)ccc3nc12 | Staphylococcus epidermidis | broth microdilution | MRSE 35984 | single representative determination | MIC | 0.1 µM |
| CC(=O)N[C@H](CCCCN)C(=O)N[C@H](CC(C)C)C(=O)N[C@H](CCCCN)C(=O)N[C@H](CO)C(=O)N[C@H](CC(C)C)C(=O)N[C@H](CC(C)C)C(=O)N[C@H](CCCCN)C(=O)N[C@@H](C(=O)N[C@H](CC(C)C)C(=O)N[C@H](CO)C(=O)N[C@H](CCCCN)C(=O)N[C@H](C)C(=O)N[C@H](CCCCN)C(=O)N[C@H](CCCCN)C(=O)N[C@H](CCCCN)C(=O)N[C@H](CCCCN)C(=O)N[C@H](CC(C)C)C(=O)N[C@H](CCCCN)C(=O)N[C@@H](C(=O)N[C@H](CC(C)C)C(=O)N[C@H](CC(C)C)C(=O)N[C@H](CCCCN)C(=O)N[C@H](C)C(=O)N[C@H](CC(C)C)C(=O)N[C@H](CO)C(=O)N[C@H](CCCCN)C(N)=O)[C@H](C)O)[C@H](C)O | Acinetobacter baumannii |  | 964, Mueller-Hinton broth | 24 h, 37 °C | MIC | 0.7 µM |
| CC(C)=CCc1cc2c(cc1O)OC[C@H]1c3ccc(O)c(CC=C(C)C)c3O[C@@H]21 | Shigella flexneri |  | DMST 4423 |  | MIC | inactive |
| Oc1c(Br)cc(Br)c2nc3cc(C(F)(F)F)ccc3nc12 | Staphylococcus epidermidis | broth microdilution | MRSE 35984 | single representative determination | MIC | 0.1 µM |
| C[C@@H](c1ccn(Cc2ccc(Cl)c(Cl)c2)n1)[C@](O)(Cn1cnnn1)c1ccc(F)cc1F | Aspergillus fumigatus | growth, broth microdilution | 7544 | 48 h, 35 °C, ≥50% inhibition | MIC | 32 mg/L |
| COc1c2c(cc3c1[C@@H]1Oc4c(ccc(O)c4CC=C(C)C)[C@@H]1CO3)OC(C)(C)C=C2 | Shigella flexneri |  | DMST 4423 |  | MIC | inactive |
| CCCCCCn1ccc([C@H](C)[C@](O)(Cn2cnnn2)c2ccc(F)cc2F)n1 | Aspergillus fumigatus | growth, broth microdilution | 7544 | 48 h, 35 °C, ≥50% inhibition | MIC | > 64 mg/L |
| CC(=O)N[C@H](CCCCN)C(=O)N[C@H](CC(C)C)C(=O)N[C@H](CCCCN)C(=O)N[C@H](CO)C(=O)N[C@H](CC(C)C)C(=O)N[C@H](CC(C)C)C(=O)N[C@H](CCCCN)C(=O)N[C@@H](C(=O)N[C@H](CC(C)C)C(=O)N[C@H](CO)C(=O)N[C@H](CCCCN)C(=O)N[C@H](C)C(=O)N[C@H](CCCCN)C(=O)N[C@H](CCCCN)C(=O)N[C@H](CCCCN)C(=O)N[C@H](CC(C)C)C(=O)N[C@H](CC(C)C)C(=O)N[C@H](CCCCN)C(=O)N[C@@H](C(=O)N[C@H](C)C(=O)N[C@H](CC(C)C)C(=O)N[C@H](CCCCN)C(=O)N[C@H](C)C(=O)N[C@H](CC(C)C)C(=O)N[C@H](CO)C(=O)N[C@H](CCCCN)C(N)=O)[C@H](C)O)[C@H](C)O | Acinetobacter baumannii |  | 899, Mueller-Hinton broth | 24 h, 37 °C | MIC | 0.7 µM |
| Oc1c(Br)c(Cl)c(Br)c2nc3c(C(F)(F)F)cc(C(F)(F)F)cc3nc12 | Staphylococcus epidermidis | microbial growth, broth dilution | 12228 |  | MIC | 1.56 µM |
| COc1cc(CNC(=O)C[C@H](C)CCC=C(C)C)ccc1OCc1cn(-c2ccccc2Cl)nn1 | SR leukaemia cells | SRB |  | 10 µM, 48 h | growth percent | 48.5% |
| Oc1c(Br)cc(Br)c2nc3cc(I)ccc3nc12 | Staphylococcus epidermidis | broth microdilution | MRSE 35984 |  | MIC | 0.15 µM |
| Oc1ccccc1C1Nc2ccccc2C2=[O+][Cu-2]3([Cl])[O]c4ccccc4C=[N+]3N21 (centres unmarked) | Mycolicibacterium smegmatis | broth microdilution | ATCC 700084 | 3 days | MIC | 64 mg/L |
| C[C@@H](c1ccn(Cc2ccc(C#N)cc2)n1)[C@](O)(Cn1cnnn1)c1ccc(F)cc1F | Aspergillus fumigatus | growth, broth microdilution | 7544 | 48 h, 35 °C, ≥50% inhibition | MIC | > 64 mg/L |
| CC(C)=CCc1cc2c(cc1O)OCc1c-2oc2c(CC=C(C)C)c(O)ccc12 | Shigella flexneri |  | DMST 4423 |  | MIC | inactive |
| Oc1c(Br)cc(Br)c2nc3c(C(F)(F)F)cc(C(F)(F)F)cc3nc12 | Staphylococcus epidermidis | broth microdilution | MRSE 35984 |  | MIC | 0.08 µM |
| COc1ccc2c(c1CC=C(C)C)O[C@H]1c3cc4c(cc3OC[C@@]21O)OC(C)(C)C=C4 | Shigella flexneri |  | DMST 4423 |  | MIC | inactive |
| C[C@@H](c1ccn(Cc2c(F)cccc2F)n1)[C@](O)(Cn1cnnn1)c1ccc(F)cc1F | Aspergillus fumigatus | growth, broth microdilution | 7544 | 48 h, 35 °C, ≥50% inhibition | MIC | > 64 mg/L |

A few entries again:
| Structure (SMILES) | tested on | assay | test system | setting | quantity | value |
| --- | --- | --- | --- | --- | --- | --- |
| Oc1c(Br)cc(Br)c2nc3cc(Cc4ccccc4)ccc3nc12 | Staphylococcus epidermidis | broth microdilution | MRSE 35984 | single representative determination | MIC | 0.1 µM |
| CC(=O)N[C@H](CCCCN)C(=O)N[C@H](CC(C)C)C(=O)N[C@H](CCCCN)C(=O)N[C@H](CO)C(=O)N[C@H](CC(C)C)C(=O)N[C@H](CC(C)C)C(=O)N[C@H](CCCCN)C(=O)N[C@@H](C(=O)N[C@H](CC(C)C)C(=O)N[C@H](CO)C(=O)N[C@H](CCCCN)C(=O)N[C@H](C)C(=O)N[C@H](CCCCN)C(=O)N[C@H](CCCCN)C(=O)N[C@H](CCCCN)C(=O)N[C@H](CCCCN)C(=O)N[C@H](CC(C)C)C(=O)N[C@H](CCCCN)C(=O)N[C@@H](C(=O)N[C@H](CC(C)C)C(=O)N[C@H](CC(C)C)C(=O)N[C@H](CCCCN)C(=O)N[C@H](C)C(=O)N[C@H](CC(C)C)C(=O)N[C@H](CO)C(=O)N[C@H](CCCCN)C(N)=O)[C@H](C)O)[C@H](C)O | Acinetobacter baumannii |  | 964, Mueller-Hinton broth | 24 h, 37 °C | MIC | 0.7 µM |
| CC(C)=CCc1cc2c(cc1O)OC[C@H]1c3ccc(O)c(CC=C(C)C)c3O[C@@H]21 | Shigella flexneri |  | DMST 4423 |  | MIC | inactive |
| Oc1c(Br)cc(Br)c2nc3cc(C(F)(F)F)ccc3nc12 | Staphylococcus epidermidis | broth microdilution | MRSE 35984 | single representative determination | MIC | 0.1 µM |
| C[C@@H](c1ccn(Cc2ccc(Cl)c(Cl)c2)n1)[C@](O)(Cn1cnnn1)c1ccc(F)cc1F | Aspergillus fumigatus | growth, broth microdilution | 7544 | 48 h, 35 °C, ≥50% inhibition | MIC | 32 mg/L |
| COc1c2c(cc3c1[C@@H]1Oc4c(ccc(O)c4CC=C(C)C)[C@@H]1CO3)OC(C)(C)C=C2 | Shigella flexneri |  | DMST 4423 |  | MIC | inactive |
